{"data": "Assay results gathered from unrelated publications", "target": "Activin receptor type-1 (ACVR1, Homo sapiens, UniProt Q04771)", "note": "Compare with care: the assays were run in different laboratories. Values joined by “and” are separate records of one study, mostly repeats; a detail may differ."}
{"SMILES": "CC(C)=CC1OC(C)(C)C2C=C3C(=O)C(Cl)=CC(O)C3C3C(O)C4OC4C(=O)C132 (stereo not drawn)", "assay": "cell-free assay, competition with immobilised ligand", "setting": "10 µM", "endpoint": "remaining binding", "result": "84%"}
{"SMILES": "CN1CC[C@@H](COc2cnc(C#N)cc2-c2ccn3nc(NC(=O)C4CC4)cc3c2)C1", "assay": "enzyme activity, inhibitor", "setting": "1 µM", "endpoint": "inhibition", "result": "7%"}
{"SMILES": "N[C@H]1CC[C@H](Nc2nccc(-c3cccnc3Oc3ccc(NC(=O)NC4CC4)c4ccccc34)n2)CC1", "assay": "kinobead competition pulldown", "system": "HEK293/HCT116 lysate mixture", "setting": "10 µM, 1 h, 4 °C", "scale": "lower = stronger competition", "endpoint": "log2 LFQ intensity", "result": "25.4 and 25.6 and 25.3"}
{"SMILES": "CN1CCN(Cc2ccc(-c3ccc(CO[C@H]4CCC[C@@H]4NC(=O)c4cc(-c5cnn(C)c5)cnc4N)cc3)cc2)CC1", "assay": "enzyme activity, inhibitor", "setting": "0.1 µM", "endpoint": "inhibition", "result": "-5%"}
{"SMILES": "Nc1ncc2c(n1)-c1c([nH]c3ccc(C4=CCOCC4)cc13)CCC2", "assay": "binding, competition with immobilised ligand", "setting": "1 µM", "endpoint": "remaining binding", "result": "100%"}
{"SMILES": "C=CC(=O)N1CCCC(n2c(=O)c3ncccc3n(Cc3ccc(Oc4ccccc4)cc3)c2=O)C1 (stereo not drawn)", "assay": "cell-free assay, competition with immobilised ligand", "setting": "1 µM", "endpoint": "remaining binding", "result": "87%"}
{"SMILES": "NC(=O)C[C@H]1CCc2sc3ncnc(O[C@H]4CC[C@H](N5CCOCC5)CC4)c3c21", "assay": "enzyme activity, inhibitor", "setting": "10 µM", "endpoint": "inhibition", "result": "-1%"}
{"SMILES": "O=C(Cc1ccc(OCc2ccccc2)cc1)NC1(C(=O)O)CCN(C(=O)c2ccc(-c3cccc(Cl)c3)cc2)CC1", "assay": "enzyme activity, inhibitor", "setting": "10 µM", "endpoint": "activity vs control", "result": "115%"}
{"SMILES": "Nc1ncc(-c2cc(-c3cnn(CC(F)(F)F)c3)ncc2F)nc1C(=O)NC1CNCC(F)C1 (stereo not drawn)", "assay": "enzyme activity", "setting": "1 µM", "scale": "reference: DMSO control", "endpoint": "remaining activity", "result": "109%"}
{"SMILES": "CNC(=O)C1CCN(c2cc(C)c(F)cc2NC(=O)c2ccc(-c3cc(O)ccc3C)c(C)c2)CC1", "assay": "binding, competition with immobilised ligand", "setting": "1 µM", "endpoint": "remaining binding", "result": "100%"}
{"SMILES": "C=CC(=O)N1Cc2nc(-c3cc(-c4cc(Cl)cnc4Cl)c(F)cc3F)n(-c3ccncn3)c2C1", "assay": "cell-free assay", "setting": "1 µM", "endpoint": "inhibition", "result": "2.1%"}
{"SMILES": "COCC12C(=O)NC3C4(C(OC)CC1O)C1CC5(O)C(OC)C(O)C(OC(C)=O)(C1C5OC(=O)c1ccccc1)C3(O)C(OC)C24 (stereo not drawn)", "assay": "kinase activity, inhibitor, ProQinase kinase profiling", "setting": "25 µM", "scale": "reference: control", "endpoint": "remaining activity", "result": "94% and 105%"}
{"SMILES": "C=CC(=O)N1CCc2ccc(-n3c(=O)ccc4cnc5ccc(-c6cnn(C)c6)cc5c43)cc21", "assay": "KINOMEscan", "setting": "1 µM", "scale": "reference: DMSO control", "endpoint": "remaining binding", "result": "99%"}
{"SMILES": "Cc1cnc2nc1Nc1cccc(c1)COC/C=C/COCc1cc(ccc1OCCN1CCOCC1)N2", "assay": "binding", "setting": "0.1 µM", "endpoint": "remaining binding", "result": "85%"}
{"SMILES": "CNC(=O)C[C@H](Cc1ccc(C#N)cc1)NC(=O)c1cc(-c2ccc(CN[C@H](C)c3ccc(C)cc3)o2)ccc1Cl", "assay": "enzyme activity, inhibitor", "setting": "1 µM", "endpoint": "activity vs control", "result": "96%"}
{"SMILES": "Cc1ccc(-c2c(/C=C(\\C#N)C(=O)NC(C)C)n(CCCO)c3ncnc(N)c23)cc1", "assay": "cell-free assay, competition with immobilised ligand", "setting": "1 µM", "endpoint": "remaining binding", "result": "47%"}
{"SMILES": "CCN1CCN(Cc2ccc(C(=O)Nc3ccc(C)c(NCc4cnc5[nH]ccc5c4OC)c3)cc2C(F)(F)F)CC1", "assay": "binding, competition with immobilised ligand", "setting": "1 µM", "endpoint": "remaining binding", "result": "100%"}
{"SMILES": "COc1cc(Nc2nccc(-c3cnn4nc(OC)ccc34)n2)cc(C(F)(F)F)c1", "assay": "binding, competition with immobilised ligand", "setting": "1 µM", "endpoint": "remaining binding", "result": "97%"}
{"SMILES": "CNC1C[S+]2CC[S+]3CC[S+](C1)[Ru-4]321([N]=C=S)[n]2c3ccc(OC)cc3c3c4c(c5cc(F)c[n+]1c5c32)C(=O)NC4=O (stereo not drawn)", "assay": "KinomeScan", "setting": "0.1 µM", "scale": "reference: untreated", "endpoint": "remaining binding", "result": "100%"}
{"SMILES": "COc1c(Cl)cccc1Nc1c(-c2ccncc2C#C[C@@]2(C)CCCN2C(=O)/C=C/CN(C)C)[nH]c2c1C(=O)NCC2", "assay": "cell-free assay, competition with immobilised ligand", "setting": "3 µM", "endpoint": "remaining binding", "result": "100%"}
{"SMILES": "NC(=O)[C@@H](O)C[C@H]1CCc2sc3ncnc(O[C@H]4CC[C@H](N5CCOCC5)CC4)c3c21", "assay": "enzyme activity, inhibitor", "setting": "10 µM", "endpoint": "inhibition", "result": "1%"}
